Results collected from several papers.
Protocols differ between the studies behind these lines. Several values in a cell are separate wells, animals, samples, runs or records. Numbers after ± are the reported error.
ALB: Albumin (ALB, Bos taurus, UniProt P02769)
Chain of UniProt P02769 (whole entry, looked up): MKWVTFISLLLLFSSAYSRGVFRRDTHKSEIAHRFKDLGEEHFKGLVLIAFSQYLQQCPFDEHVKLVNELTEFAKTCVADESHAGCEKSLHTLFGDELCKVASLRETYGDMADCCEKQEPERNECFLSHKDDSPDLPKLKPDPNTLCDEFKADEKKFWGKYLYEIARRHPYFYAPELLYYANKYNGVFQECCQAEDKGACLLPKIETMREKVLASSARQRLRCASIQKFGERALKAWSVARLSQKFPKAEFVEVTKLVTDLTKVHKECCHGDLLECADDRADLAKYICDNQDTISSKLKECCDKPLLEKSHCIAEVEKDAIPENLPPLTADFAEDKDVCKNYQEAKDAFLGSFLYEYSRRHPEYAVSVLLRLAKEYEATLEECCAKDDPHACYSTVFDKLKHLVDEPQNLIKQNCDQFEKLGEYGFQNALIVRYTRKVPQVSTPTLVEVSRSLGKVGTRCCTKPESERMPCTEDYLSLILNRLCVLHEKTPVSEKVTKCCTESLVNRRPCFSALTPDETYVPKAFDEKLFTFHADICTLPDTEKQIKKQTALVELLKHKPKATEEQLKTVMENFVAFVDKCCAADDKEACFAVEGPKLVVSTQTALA
SLCO1B1: Solute carrier organic anion transporter family member 1B1 (SLCO1B1, Homo sapiens, UniProt Q9Y6L6)
Chain of UniProt Q9Y6L6 (whole entry, looked up): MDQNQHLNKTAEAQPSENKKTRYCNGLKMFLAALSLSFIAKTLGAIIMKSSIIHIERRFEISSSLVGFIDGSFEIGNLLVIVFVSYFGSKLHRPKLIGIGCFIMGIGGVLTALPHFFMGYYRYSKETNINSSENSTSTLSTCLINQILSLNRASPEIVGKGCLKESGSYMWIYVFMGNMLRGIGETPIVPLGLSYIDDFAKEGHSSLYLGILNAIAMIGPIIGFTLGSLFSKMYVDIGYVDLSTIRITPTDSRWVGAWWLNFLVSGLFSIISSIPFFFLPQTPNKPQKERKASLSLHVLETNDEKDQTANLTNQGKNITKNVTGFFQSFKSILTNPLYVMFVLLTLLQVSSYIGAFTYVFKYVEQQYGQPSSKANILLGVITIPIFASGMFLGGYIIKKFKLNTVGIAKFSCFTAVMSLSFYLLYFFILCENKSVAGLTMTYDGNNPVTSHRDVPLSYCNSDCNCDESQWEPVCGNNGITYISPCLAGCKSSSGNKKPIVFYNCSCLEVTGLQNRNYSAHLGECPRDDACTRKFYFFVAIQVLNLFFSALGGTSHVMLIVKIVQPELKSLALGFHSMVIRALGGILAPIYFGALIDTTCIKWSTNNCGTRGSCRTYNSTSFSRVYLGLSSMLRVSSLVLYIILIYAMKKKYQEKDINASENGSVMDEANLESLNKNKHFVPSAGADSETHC
Chain of UniProt P10632 (whole entry, looked up): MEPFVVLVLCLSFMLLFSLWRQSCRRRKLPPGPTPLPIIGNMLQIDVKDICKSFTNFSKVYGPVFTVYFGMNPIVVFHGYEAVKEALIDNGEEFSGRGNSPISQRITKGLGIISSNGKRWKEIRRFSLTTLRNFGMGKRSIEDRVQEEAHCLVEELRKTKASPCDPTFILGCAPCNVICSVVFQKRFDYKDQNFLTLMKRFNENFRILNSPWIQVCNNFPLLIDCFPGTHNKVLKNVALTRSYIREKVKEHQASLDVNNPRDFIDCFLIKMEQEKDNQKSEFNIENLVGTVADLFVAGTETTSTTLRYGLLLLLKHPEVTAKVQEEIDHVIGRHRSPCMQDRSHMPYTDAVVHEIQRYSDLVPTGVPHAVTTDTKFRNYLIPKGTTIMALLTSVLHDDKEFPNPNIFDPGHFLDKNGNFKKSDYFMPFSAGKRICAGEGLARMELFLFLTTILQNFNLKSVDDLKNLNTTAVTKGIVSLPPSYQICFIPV
Chain of UniProt Q7KZI7 (whole entry, looked up): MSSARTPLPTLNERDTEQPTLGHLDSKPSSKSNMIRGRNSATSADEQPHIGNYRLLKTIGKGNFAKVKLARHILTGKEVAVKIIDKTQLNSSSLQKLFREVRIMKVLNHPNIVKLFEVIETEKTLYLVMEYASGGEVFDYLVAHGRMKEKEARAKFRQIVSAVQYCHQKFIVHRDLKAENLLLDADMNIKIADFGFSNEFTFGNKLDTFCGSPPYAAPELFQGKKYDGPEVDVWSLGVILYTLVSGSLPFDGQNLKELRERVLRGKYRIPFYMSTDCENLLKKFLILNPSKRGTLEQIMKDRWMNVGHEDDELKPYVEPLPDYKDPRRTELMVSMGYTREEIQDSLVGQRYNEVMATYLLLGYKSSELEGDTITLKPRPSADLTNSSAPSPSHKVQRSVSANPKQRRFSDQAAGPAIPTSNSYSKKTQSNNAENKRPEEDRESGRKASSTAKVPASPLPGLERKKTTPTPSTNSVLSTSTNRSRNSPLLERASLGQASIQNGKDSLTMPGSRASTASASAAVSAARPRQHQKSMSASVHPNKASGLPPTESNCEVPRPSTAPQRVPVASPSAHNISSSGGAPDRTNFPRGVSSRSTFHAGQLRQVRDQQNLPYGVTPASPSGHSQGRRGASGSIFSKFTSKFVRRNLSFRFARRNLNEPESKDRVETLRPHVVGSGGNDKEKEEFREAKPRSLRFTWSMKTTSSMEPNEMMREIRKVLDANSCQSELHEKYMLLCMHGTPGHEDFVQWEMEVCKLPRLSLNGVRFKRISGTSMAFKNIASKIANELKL

Structure (SMILES) = Cc1ncsc1-c1ccc(C(C)NC(=O)C2CC(O)CN2C(=O)C(NC(=O)CCCCCCCCCCN2CCCC(Nc3ncc(Cl)c(Nc4ccccc4S(=O)(=O)C(C)C)n3)C2)C(C)(C)C)cc1 (stereo not shown); target or system = 22Rv1; assay = RNA-seq, measured: ZNF239 mRNA; conditions = concentration not given; scale = reference: DMSO; measurement = log2 fold change; value = -1.58
Structure (SMILES) = Cc1cccc(Oc2ccc(-n3c(=O)[nH]c4cccnc43)cn2)c1C; target or system = P-glycoprotein, rat; measurement = efflux ratio; value = 1.2
Structure (SMILES) = CCCCCCCCCCCCCCCC(=O)NCCCC[C@H](NC(=O)[C@H](CCC(=O)O)NC(=O)[C@H](Cc1ccc(O)cc1)NC(=O)[C@H](CCC(=O)O)NC(=O)COCC(=O)NCCCOCCOCCOCCCNC(=O)[C@H](Cc1c[nH]c2ccccc12)NC(=O)[C@H](CCCCN)NC(=O)[C@H](C)NC(=O)[C@H](CCCCNC(=N)N)NC(=O)[C@H](CCC(N)=O)NC(=O)[C@H](Cc1c[nH]cn1)NC(=O)[C@H](CCSC)NC(=O)[C@H](CC(C)C)NC(=O)[C@H](CCC(N)=O)NC(=O)[C@@H](NC(=O)[C@H](CCC(=O)O)NC(=O)C(C)(C)NC(=O)[C@@H](NC(=O)C(C)(C)N)C(C)C)[C@@H](C)CC)C(=O)N[C@@H](CCC(=O)O)C(=O)N[C@@H](Cc1ccc(O)cc1)C(=O)N[C@@H](CCC(=O)O)C(N)=O; target or system = ALB; assay = binding, BLI; measurement = Kd; value = 1.47 µM
Structure (SMILES) = CN(C)c1ccc2c(c1)[Si](C)(C)c1cc(N(C)C)ccc1C21OC(=O)c2cc(C(=O)O)ccc21; target or system = ALB; assay = binding, fluorescence titration; system = PBS; measurement = Kd; value = 23 ± 5 µM
Structure (SMILES) = COC1CN([C@H]2CC[C@H]([C@@]3(C)Oc4c(Cl)cc(C(=O)NCc5c(SC)cc(C)[nH]c5=O)c(C)c4O3)CC2)C1; assay = RNA-seq, measured: CXCL16 mouse homolog; system = mouse, HT-1376 xenograft, whole blood; conditions = dose not given; scale = reference: vehicle; measurement = log2 fold change; value = 0.817
Structure (SMILES) = O=C(c1ccc(OCCN2CCCCC2)cc1)c1c(-c2ccc(O)cc2)sc2cc(O[C@@H]3O[C@H](C(=O)O)[C@@H](O)[C@H](O)[C@H]3O)ccc12; target or system = SLCO1B1; assay = substrate; system = HEK293 expressing SLCO1B1; conditions = pH 7.4; measurement = intrinsic clearance; value = 0.259 µL/min/mg protein
Structure (SMILES) = CO[C@@H]1[C@H](OP(=O)(O)OC[C@H]2O[C@@H](n3cnc4c(=O)[nH]c(N)nc43)[C@H](O)[C@@H]2O)[C@@H](COP(=O)(O)OP(=O)([O-])O[P@@](O)(=S)OC[C@H]2O[C@@H](n3c[n+](C)c4c(=O)[nH]c(N)nc43)[C@H](O)[C@@H]2O)O[C@H]1n1cnc2c(N)ncnc21; target or system = m7GpppN-mRNA hydrolase (DCP2, Homo sapiens, UniProt Q8IU60); assay = substrate; conditions = short capped RNA; scale = reference: AG-CleanCap RNA; measurement = decapping susceptibility; value = no effect
Structure (SMILES) = CNC(=O)C1CCCN(C(=O)C2CC3CCC2N3C(=O)[C@@H]2C[C@@H](O)CN2C(=O)NCc2cccc(Cl)c2F)C1 (mixture of isomers); target or system = Cytochrome P450 2C8 (CYP2C8, Homo sapiens, UniProt P10632); assay = preincubation without NADPH; system = human; conditions = 50 µM; scale = reference: negative control; measurement = remaining activity; value = 93.4% and 101%
Structure (SMILES) = CN1CCN(c2ccc3[nH]c(-c4ccc5[nH]c(-c6ccc(OCCCCNC(=O)c7ccc8c(c7)C(=O)OC87c8ccc(N(C)C)cc8C(C)(C)c8cc(N(C)C)ccc87)cc6)nc5c4)nc3c2)CC1; target or system = ALB; assay = binding, fluorescence titration; system = PBS; conditions = 1 h; measurement = Kd; value = 334 ± 70 µM
Structure (SMILES) = O=C(Nc1cc(-c2ccnc3[nH]ccc23)c(Cl)cn1)[C@H]1CCC[C@@H](NC(=O)C(F)(F)F)C1; target or system = P-glycoprotein (MDR1); system = MDCK-MDR1 cells; conditions = basolateral to apical; measurement = Papp; value = 40.2 ×10⁻⁶ cm/s
Structure (SMILES) = CCN(CC)c1ccc(-c2oc3cc4ccccc4cc3c(=O)c2O)cc1; target or system = ALB; conditions = with: BSA, 40 eq; scale = reference: without BSA; measurement = CO release quantum yield decrease; value = 5 fold
Structure (SMILES) = CN(C)c1ccc2c(c1)[Si](C)(C)c1cc(N(C)C)ccc1C21OC(=O)c2c(C(=O)O)cccc21; target or system = ALB; assay = binding, fluorescence titration; system = PBS; measurement = Kd; value = 29 ± 3 µM
Structure (SMILES) = CCN(CC)CC#CCNc1ccnc2cc(Cl)ccc12; target or system = Salmonella typhimurium; assay = mini-Ames test; system = TA97a; conditions = 500.0 µg/well, without S9; measurement = revertants per well; value = 0
Structure (SMILES) = CN1CCN(c2ccc3[nH]c(-c4ccc5[nH]c(-c6ccc(OCCCCNC(=O)c7cccc8c7C(=O)OC87c8ccc(N(C)C)cc8[Si](C)(C)c8cc(N(C)C)ccc87)cc6)nc5c4)nc3c2)CC1; target or system = ALB; assay = binding, fluorescence titration; system = PBS; conditions = 1 h; measurement = Kd; value = 557 ± 520 µM
Structure (SMILES) = O=C(c1ccc(OCCN2CCCCC2)cc1)c1c(-c2ccc(O[C@@H]3O[C@H](C(=O)O)[C@@H](O)[C@H](O)[C@H]3O)cc2)sc2cc(O)ccc12; target or system = SLCO1B1; assay = substrate; system = HEK293 expressing SLCO1B1; conditions = pH 7.4; measurement = intrinsic clearance; value = 2.21 µL/min/mg protein
Structure (SMILES) = Cc1nn(-c2cccc(N)c2)c(=O)c2cnc(Nc3ccc(N4CCNCC4)cc3)nc12; target or system = MARK2 (Homo sapiens, UniProt Q7KZI7); assay = enzyme activity, inhibitor; measurement = IC50; value = > 10 µM
Structure (SMILES) = Nc1ncc(-c2cc(-c3cnn(CC(F)(F)F)c3)ncc2F)nc1C(=O)NC1CNCC(F)C1 (stereo not shown); target or system = MAP3K4; assay = KINOMEscan; conditions = 1 µM; scale = reference: DMSO control; measurement = remaining binding; value = 77%
Structure (SMILES) = CC(C)OCCOCc1ccc(OCC(O)CN(N=O)C(C)C)cc1 (stereo not shown); target or system = Salmonella typhimurium; assay = Ames test; system = TA1535; conditions = 500 µg/plate, 30 % hamster S9; scale = reference: solvent control; measurement = revertant fold increase; value = 9.9 fold
Structure (SMILES) = Cc1ncc2[nH]c(=O)n(-c3cnc(Oc4cccc5c4C(C)(C)CO5)c(Cl)c3)c2n1; target or system = P-glycoprotein, rat; measurement = efflux ratio; value = 1.4

Repeated from above:
Structure (SMILES) = CN1CCN(c2ccc3[nH]c(-c4ccc5[nH]c(-c6ccc(OCCCCNC(=O)c7cccc8c7C(=O)OC87c8ccc(N(C)C)cc8[Si](C)(C)c8cc(N(C)C)ccc87)cc6)nc5c4)nc3c2)CC1; target or system = ALB; assay = binding, fluorescence titration; system = PBS; conditions = 1 h; measurement = Kd; value = 557 ± 520 µM
Structure (SMILES) = O=C(c1ccc(OCCN2CCCCC2)cc1)c1c(-c2ccc(O[C@@H]3O[C@H](C(=O)O)[C@@H](O)[C@H](O)[C@H]3O)cc2)sc2cc(O)ccc12; target or system = SLCO1B1; assay = substrate; system = HEK293 expressing SLCO1B1; conditions = pH 7.4; measurement = intrinsic clearance; value = 2.21 µL/min/mg protein
